Measurements gathered from unrelated publications.
Lines come from different studies, so protocols differ. Numbers after ± are the reported error.
Organism: Candida albicans

CC[C@H](C)[C@H](NC(=O)[C@H](CCCCN)NC(=O)[C@H](CCCCN)NC(=O)[C@H](CC(C)C)NC(=O)[C@@H](NC(=O)[C@H](CCCCN)NC(=O)[C@H](C)NC(=O)[C@H](C)NC(=O)[C@@H](NC(=O)CNC(=O)[C@H](C)NC(=O)[C@@H](NC(=O)[C@H](CCCCN)NC(=O)[C@@H]1CCCN1C(=O)[C@H](Cc1ccccc1)NC(=O)[C@@H](N)Cc1ccccc1)C(C)C)C(C)C)C(C)C)C(=O)N[C@@H](Cc1ccccc1)C(=O)N[C@H]1CSSC[C@@H](C(=O)O)NC(=O)[C@H](CCCCN)NC(=O)[C@H](CCCCN)NC(=O)[C@H](CO)NC(=O)[C@H]([C@@H](C)CC)NC(=O)[C@H]([C@@H](C)O)NC1=O
MBC (10231; 18 h, 37 °C): > 128 µM

CC[C@H](C)C[C@H](C)CCCCCCCCC(=O)N[C@H]1C[C@@H](O)[C@@H](NCCN)NC(=O)[C@@H]2[C@@H](O)CCN2C(=O)[C@H]([C@H](O)CCN)NC(=O)[C@H]([C@H](O)[C@@H](O)c2ccc(O)cc2)NC(=O)[C@@H]2C[C@@H](O)CN2C(=O)[C@H]([C@@H](C)O)NC1=O
MIC (ATCC 10231, RPMI 1640, 0.165 M MOPS; 24 h, 35 °C, 100% inhibition endpoint): 0.2 µg/mL

CCCCCCCCCCCCCCC(O)C[N+](C)(CCO)CCO (stereo not shown)
IC50 (biofilm formation, XTT; SC5314; 24 h, 37 °C): ~9.55 µM

pneumocandin I
MIC (broth microdilution, resazurin; ATCC 10231; 24 h, 35 °C): 0.1 µg/mL

CC[C@H](C)[C@H](NC(=O)[C@H](CCCCN)NC(=O)[C@H](CCCCN)NC(=O)[C@H](CC(C)C)NC(=O)[C@@H](NC(=O)[C@H](CCCCN)NC(=O)[C@H](C)NC(=O)[C@H](C)NC(=O)[C@@H](NC(=O)CNC(=O)[C@H](C)NC(=O)[C@@H](NC(=O)[C@@H](NC(=O)[C@@H]1CCCN1C(=O)[C@H](Cc1ccccc1)NC(=O)[C@@H](N)Cc1ccccc1)[C@@H](C)CC)C(C)C)C(C)C)C(C)C)C(=O)N[C@@H](Cc1ccccc1)C(=O)N[C@H]1CSSC[C@@H](C(=O)O)NC(=O)[C@H](CCCCN)NC(=O)[C@H](CCCCN)NC(=O)[C@H](CO)NC(=O)[C@H]([C@@H](C)CC)NC(=O)[C@H]([C@@H](C)O)NC1=O
MBC (10231; 18 h, 37 °C): > 128 µM

CC[C@H](C)[C@H](NC(=O)CN)C(=O)NCC(=O)N[C@@H](C)C(=O)N[C@H](C(=O)N[C@@H](CC(C)C)C(=O)N[C@@H](CCCCN)C(=O)N[C@H](C(=O)N[C@@H](CC(C)C)C(=O)N[C@H](C(=O)N[C@H](C(=O)NCC(=O)N[C@@H](CC(C)C)C(=O)N1CCC[C@H]1C(=O)N[C@@H](C)C(=O)N[C@@H](CC(C)C)C(=O)N[C@H](C(=O)N[C@@H](CO)C(=O)N[C@@H](Cc1c[nH]c2ccccc12)C(=O)N[C@H](C(=O)N[C@@H](CCCCN)C(=O)N[C@@H](CCCNC(=N)N)C(=O)N[C@@H](CCCCN)C(=O)N[C@@H](CCCNC(=N)N)C(=O)N[C@@H](CCC(N)=O)C(=O)N[C@@H](CCC(N)=O)C(N)=O)[C@@H](C)CC)[C@@H](C)CC)[C@@H](C)O)[C@@H](C)O)C(C)C)C(C)C
MIC (broth microdilution; ATCC 90028; 20 h, 37 °C): 7.8 ± 1.8 µg/mL

CCCCC[CH2][Hg][S]c1nc(N)nc2[nH]cnc12
IC50 (biofilm formation, XTT; SC5314; 24 h, 37 °C): 0.012 µM

CC[C@H](C)[C@H](NC(=O)CN)C(=O)NCC(=O)N[C@@H](C)C(=O)N[C@H](C(=O)N[C@@H](CC(C)C)C(=O)N[C@@H](CCCCN)C(=O)N[C@H](C(=O)N[C@@H](CC(C)C)C(=O)N[C@H](C(=O)N[C@H](C(=O)NCC(=O)N[C@@H](CC(C)C)C(=O)N1CCC[C@H]1C(=O)N[C@@H](C)C(=O)N[C@@H](CC(C)C)C(=O)N[C@H](C(=O)N[C@@H](CO)C(=O)N[C@@H](Cc1c[nH]c2ccccc12)C(=O)N[C@H](C(=O)N[C@@H](CCCCN)C(=O)N[C@@H](CCCNC(=N)N)C(=O)N[C@@H](CCCCN)C(=O)N[C@@H](CCCNC(=N)N)C(=O)N[C@@H](CCC(N)=O)C(=O)N[C@@H](CCC(N)=O)C(N)=O)[C@@H](C)CC)[C@@H](C)CC)[C@@H](C)O)[C@@H](C)O)C(C)C)C(C)C
MIC (broth microdilution; ATCC 90028; 28 °C): 3.1 µM

CC[C@H](C)[C@H](NC(=O)CNC(=O)[C@H](CC(=O)O)NC(=O)[C@H](CCCNC(=N)N)NC(=O)[C@@H](NC(=O)[C@H](CC(N)=O)NC(=O)[C@H](CCCNC(=N)N)NC(=O)CNC(=O)[C@@H](NC(=O)[C@H](CCCCN)NC(=O)[C@H](CCC(=O)O)NC(=O)[C@@H](NC(=O)[C@H](CCCCN)NC(=O)[C@H](CCCCN)NC(=O)[C@H](Cc1ccccc1)NC(=O)[C@@H](NC(=O)[C@H](CCCCN)NC(=O)[C@H](Cc1c[nH]c2ccccc12)NC(=O)[C@@H](N)CCCCN)[C@@H](C)CC)[C@@H](C)CC)C(C)C)C(C)C)C(=O)N[C@H](C(=O)N[C@@H](CCCCN)C(=O)N[C@@H](C)C(=O)NCC(=O)N1CCC[C@H]1C(=O)N[C@@H](C)C(=O)N[C@H](C(=O)N[C@@H](CCC(N)=O)C(=O)N[C@H](C(=O)N[C@H](C(=O)NCC(=O)N[C@@H](CCC(N)=O)C(=O)N[C@@H](C)C(=O)N[C@H](C(=O)N[C@@H](CO)C(=O)N[C@H](C(=O)N[C@@H](C)C(=O)N[C@@H](CCCCN)C(N)=O)[C@@H](C)CC)[C@@H](C)O)C(C)C)C(C)C)C(C)C)[C@@H](C)CC
MIC (broth microdilution; ATCC 90028; 20 h, 37 °C): > 200 µg/mL

CN(C)c1ccc(/C=c2/c3cc(O)ccc3n3c2cc(-c2ccccc2)[n+]3C)cc1
IC50 (biofilm formation, XTT; SC5314; 24 h, 37 °C): 2.24 µM

Some of these lines once more:
CCCCC[CH2][Hg][S]c1nc(N)nc2[nH]cnc12
IC50 (biofilm formation, XTT; SC5314; 24 h, 37 °C): 0.012 µM
